# Measured values gathered from unrelated publications.
# Each numbered part is a random draw from the data of one study; scales do not carry over between parts.

# Set 1
# Target: Histone acetyltransferase KAT6A, both winged helices, GST fusion (KAT6A, Homo sapiens, UniProt Q92794, residues 1-181)
# Technique: protein binding microarray
# Molecule type: double-stranded DNA, one strand shown
# Sample: in vitro
# Tested at: not given
# Setting: 8-mer, flanks averaged, mean of 2 arrays, mostly near background
# Relative to: not given
# Reading: higher = stronger binding
# Target sequence (chain): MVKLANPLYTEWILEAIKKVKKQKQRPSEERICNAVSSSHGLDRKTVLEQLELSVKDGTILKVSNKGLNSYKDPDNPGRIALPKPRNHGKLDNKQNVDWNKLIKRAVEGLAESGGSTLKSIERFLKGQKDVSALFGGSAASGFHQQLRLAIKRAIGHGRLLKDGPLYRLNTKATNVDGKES
Oligonucleotide,E-score
AATATCTG,-0.149
CATGAGGG,-0.192
AGCGTATG,0.0931
AAGTCGCG,0.212
GGCCTGCA,-0.0536
CGTCACTA,0.153
CACTACAA,-0.116
ACGCTACC,0.181
CACTGTTC,-0.165
CATATTTC,-0.178
GATATTAA,0.0417
AAACGATT,-0.0117
CATAATTA,-0.0336
GTGTACAC,0.0361
ATAATAAG,-0.12
TCAAGGAA,-0.0257
AGAACCCG,0.149
ATAGGGGC,-0.163
ATCGCAGC,0.0774
AGCAATCG,-0.0491
CCTCAACC,-0.148
CGCACAAC,0.183
CTTCGTTA,-0.0197
CGCTTCTA,0.117
AGAAGAAG,-0.128

# Set 2
# Target: RNA binding protein fox-1 homolog 2, RRM domain, GST-SBP tag (RBFOX2, Homo sapiens, UniProt O43251-10, residues 100-194)
# Technique: RNA Bind-n-Seq
# Molecule type: RNA
# Sample: in vitro
# Tested at: 365 nM
# Setting: natural RNA segment, single round, ends assumed
# Relative to: no-protein control
# Reading: higher = stronger binding
# Construct (chain): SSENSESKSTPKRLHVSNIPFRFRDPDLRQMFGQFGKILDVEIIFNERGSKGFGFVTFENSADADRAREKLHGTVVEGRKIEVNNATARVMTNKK
Oligonucleotide,RBNS enrichment (R)
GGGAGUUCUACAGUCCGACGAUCAAGGGCAAAGGCUAUGAGGUAGAGGGAGGUGACAGGCAUUGCAGGUGGCAGACUGACUUUGGACAGUGAGACCCUGACCUUGCUGCAUUGCUUUGCCUUCACCACCGCUAUGGAAUUCUCGGGUGCCAA,1
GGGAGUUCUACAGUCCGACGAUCCAUAAAGCACACACUUAGUGCCCUGGAGCAAGUCCAUGACUCCACAUGACCUUGGAAGCUUUCUUCUCUCCAGAACAUUUGGAAAGGGGUAGAAGACCAUAUGGCUUACUUGGAAUUCUCGGGUGCCAA,0.278
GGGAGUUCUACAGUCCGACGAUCAUCCCAACACUUUGGGAGGCUGAGGAGGAAGGAUAGCUUGAGGCCAGGAGUUUGAGACUAGACUGGGCAACAUAGCAAGACCCCGUCUCUACAAAGCACAACGAAAAACAUGGAAUUCUCGGGUGCCAA,0.453
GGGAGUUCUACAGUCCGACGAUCGCCGCGCACGCUUCUGCAUCCUGGAUGUGUGCACCGUGCGCUGAGUGGGCUGGGGCCUUGAGGUGACUCUGUGUCUCCCCCCAAAGCCACAGGGCAGGGAAGGGGGUGGCUGGAAUUCUCGGGUGCCAA,0.438
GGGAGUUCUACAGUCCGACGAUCUGAACAUUUUCUUUGGCUCGUGCCAUGUUAUGAUCAUAUACCUUUUAAAUAAGGGGAAAUAGUAUCUUUAAAGUUAAUGUCUAGCCAAGAGUUUAGUAAACGAAGAAUUAUGGAAUUCUCGGGUGCCAA,0.316
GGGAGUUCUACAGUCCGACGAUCUACUUGAAAAAAACAAGGCCAUAUGUAAAGAAAAAAAAAAACCCUCUUUCAAUGCCUAAGUGUCUUCUUCUAUCACUCCACACCCACAGUUGCCACUUGGGGUGCACAGAUGGAAUUCUCGGGUGCCAA,0.437
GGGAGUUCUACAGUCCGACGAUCGUACUGUAACAGUAAUUUAUAGUAAUGUUUUAAAAUCAACUUUUUAUUGCCUUCUCACCAGCUGCAAAGUGUUUUGUACCAGUGAGUUUUUGCAAUAAUGCAGUAUGGUAUGGAAUUCUCGGGUGCCAA,0.479
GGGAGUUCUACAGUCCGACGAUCUGUAUGCUUAUUUAUUUGGGGGGAAAACUAUACAUUAAAGGACCUUUGUCCUAAGCUCUCUCCCAGGCCACGUUGUUAUUCACUGGGCAUGGAGAGAUGGUCAUUUCGUGUGGAAUUCUCGGGUGCCAA,0.503

# Set 3
# Target: Prothrombin, mature alpha-thrombin (F2, Homo sapiens, UniProt P00734)
# Technique: aptamer microarray, sandwich
# Molecule type: DNA with 2'F-ANA
# Sample: in vitro
# Tested at: 200 nM
# Setting: whole 15-mer aptamer, many near background
# With: Cy3 exosite-II aptamer, 400 nM
# Reading: higher = stronger binding
# Oligonucleotide: GGTTGGTGTGGTTGG
Modification,mean fluorescence intensity
2'F-ANA at 6 10 11,165 a.u.
2'F-ANA at 1 2 3 4 6 8 10 12 13 14 15,109 a.u.
2'F-ANA at 5 6 7 9 10 12,52.4 a.u.
2'F-ANA at 1 2 3 4 5 8 12 13 15,87.3 a.u.
2'F-ANA at 2 7 8 10 11 13 15,115 a.u.
2'F-ANA at 1 2 3 4 7 13 14,68.6 a.u.
2'F-ANA at 1 2 4 10 13 14,45.8 a.u.
2'F-ANA at 1 2 6 8 11 13,117 a.u.
2'F-ANA at 1 4 5 7 8 9 12 14 15,57.5 a.u.
2'F-ANA at 1 4 5 6 7 9 11 12 13 15,61.5 a.u.
2'F-ANA at 1 2 3 4 5 7 9 15,63 a.u.
2'F-ANA at 1 3 4 5 6 7 8 9 11 12 13,73.2 a.u.
2'F-ANA at 1 2 3 7 8 10 11,88.8 a.u.
2'F-ANA at 3 4 8 15,792 a.u.
2'F-ANA at 2 3 5 6 7 8 9 11 14,52.7 a.u.
2'F-ANA at 1 4 7 8 9 10 13,49.3 a.u.
2'F-ANA at 8 9 10 11 12 14 15,105 a.u.
2'F-ANA at 4 6 7 8 12 15,616 a.u.
2'F-ANA at 1 3 5 7 8 11 13 14,168 a.u.
2'F-ANA at 1 2 10 11 13,53.7 a.u.
2'F-ANA at 2 5 6 7 8 11 12 13 15,89 a.u.
2'F-ANA at 4 5 8 11 14,46.1 a.u.
2'F-ANA at 2 9 10 11 12 14,104 a.u.
2'F-ANA at 2 3 4 9 10 11 13 14 15,231 a.u.

# Set 4
# Target: Interferon regulatory factor 7, full length, phosphomimetic (IRF7, Homo sapiens, UniProt Q92985, residues 1-503, S101K/S471D/S472D/S475D/S476D/S477D/S483D/S484D/S487D)
# Chain of UniProt Q92985 (whole entry, unmodified, looked up): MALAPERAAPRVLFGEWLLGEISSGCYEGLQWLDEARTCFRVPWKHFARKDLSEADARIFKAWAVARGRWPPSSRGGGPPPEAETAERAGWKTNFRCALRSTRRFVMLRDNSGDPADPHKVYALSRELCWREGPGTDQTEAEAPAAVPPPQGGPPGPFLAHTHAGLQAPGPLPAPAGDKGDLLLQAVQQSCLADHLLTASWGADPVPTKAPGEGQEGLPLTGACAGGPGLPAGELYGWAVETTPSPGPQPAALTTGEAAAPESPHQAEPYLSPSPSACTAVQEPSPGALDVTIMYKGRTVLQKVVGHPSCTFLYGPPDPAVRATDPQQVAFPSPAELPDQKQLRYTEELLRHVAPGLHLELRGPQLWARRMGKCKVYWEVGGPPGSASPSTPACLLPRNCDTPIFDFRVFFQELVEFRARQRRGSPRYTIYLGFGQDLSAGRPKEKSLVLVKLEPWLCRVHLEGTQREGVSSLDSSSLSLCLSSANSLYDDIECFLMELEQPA
# Technique: protein-binding microarray
# Molecule type: double-stranded DNA, one strand shown
# Sample: in vitro
# Tested at: 250 nM
# Setting: 60-bp whole probe
# With: salmon DNA 0.4 mg/ml
# Relative to: random background probes
# Reading: higher = stronger binding
# All sequences stand within: GCCTAGCAC … GTCTTGATTCGCTTGACGCTGCTG
Oligonucleotide,log fluorescence [z-score]
GACGGTCTCCTTCTCCTTACGTGCTAG,-0.188
GACGGTCTCCTACTGCTGGCGTGCTAG,-0.323
TCATTTCTACTTCTGTTACTGTGCTAG,2.11
TTTGGTCTCCTACTGCTTTAGTGCTAG,0.252
TTAGGCCTGGACTTTCGGTTAGTGCTA,0.208
TTAGGTTTAGACTATCGGTTAGTGCTA,-0.0989
GGACAGTAATGGAGGTATAAGTGCTAG,-0.767
TTAGGTTTCGACTATCGCTTAGTGCTA,5.17
TTAGGACCGGACTATCGGTTAGTGCTA,0.0954
GTGTGCATCTATCTTAAATAGTGCTAG,-0.212
TCATACATTTATATCTTACTGTGCTAG,0.485
TCAATGATTGGTTGAACACTGTGCTAG,-0.391
TTAGGAATCCTTATCCTTTAGTGCTAG,0.0966
TTAGGTATACTTCTCCTTTAGTGCTAG,0.311
CCCTTTCTCTCTGTGACACAGTGCTAG,2.34
TTCGGTTTCCTTCTCCTTTAGTGCTAG,3.44
GACGGTCTCCTTTTTCTGACGTGCTAG,0.688

# Some of these lines once more (set 1):
Oligonucleotide,E-score
GATATTAA,0.0417
AAACGATT,-0.0117
CATAATTA,-0.0336
GTGTACAC,0.0361
ATAATAAG,-0.12
TCAAGGAA,-0.0257
AGAACCCG,0.149
ATAGGGGC,-0.163
ATCGCAGC,0.0774
AGCAATCG,-0.0491
CCTCAACC,-0.148
